Measured values from different studies.
Each line is one published result; not all experiments were run side by side. ± marks the error that the study gave.
Organism: human cytomegalovirus

Compound | read-out | method | cell line | strain | time | EC50 [µM]
O=c1ccn(CCCCCCCCCCCCOc2ccc(Br)cc2)c(=O)[nH]1 | viral replication | plaque reduction | WS1 | AD169 | 5 days | 3.1
O=c1[nH]c(=O)c2ncn(C[C@@H](CF)OCP(=O)(O)O)c2[nH]1 | cytopathic effect |  | HEL | AD169 |  | > 329
Nc1ccn(C[C@@H](CO)OCP(=O)(O)O)c(=O)n1 | viral plaque formation | plaque reduction | HEL | Davis |  | 1.14
OC[C@H]1O[C@@H](n2cnc3c(O)nc(-n4cc(-c5ccccc5)nn4)nc32)[C@H](O)[C@@H]1O | viral plaque formation |  | HEL | AD-169 |  | > 50
Nc1nc(O)c2ncn(COC(CO)CO)c2n1 | viral replication | plaque reduction | WS1 | AD169 | 5 days | 2 ± 0.5
CCOC(=O)C(C)NP(=O)(COC(CF)CN1CN2C=C(c3ccc([N+](=O)[O-])cc3)NC2=NC1=O)NC(C)C(=O)OCC (centres unmarked) | cytopathic effect |  | HEL | AD-169 |  | > 100
CCCCCCCCCCCCCCCCOCCCOP(=O)(O)COCCn1cnc2c(=O)[nH]c(=O)[nH]c21 | cytopathic effect |  | HEL | AD169 |  | 0.2 ± 0.28
CCOC(=O)C(C)NP(=O)(COC(CF)CN1CN2C=C(c3ccccc3)NC2=NC1=O)NC(C)C(=O)OCC (centres unmarked) | cytopathic effect |  | HEL | AD-169 |  | > 100
O=c1nc(NC2CC2)c2ncn(CCOCP(=O)(O)O)c2[nH]1 | cytopathic effect |  | HEL | AD169 |  | > 100
Cc1cn([C@H]2C[C@H](N=[N+]=[N-])[C@@H](COC(=O)Cn3c(=O)ccn(CCCCCCCCCCOc4ccc(Br)cc4)c3=O)O2)c(=O)[nH]c1=O | viral replication | plaque reduction | WS1 | AD169 | 5 days | 3.2 ± 0.5
Nc1ccn(C[C@@H](CO)OCP(=O)(O)O)c(=O)n1 | virus-induced cytopathicity |  | HEL | AD-169 |  | 1 ± 0.14
C[C@H](Cn1cnc2c(=O)[nH]c(=O)[nH]c21)OCP(=O)(O)O | cytopathic effect |  | HEL | AD169 |  | > 100
OC[C@H]1O[C@@H](n2cnc3c(NCc4ccccc4)nc(-n4cc(-c5ccccc5)nn4)nc32)[C@H](O)[C@@H]1O | viral plaque formation |  | HEL | Davis |  | > 40
Cc1cn([C@H]2C[C@H](N=[N+]=[N-])[C@@H](COC(=O)Cn3c(=O)ccn(CCCOc4ccc(Br)cc4)c3=O)O2)c(=O)[nH]c1=O | viral replication | plaque reduction | WS1 | AD169 | 5 days | 3.2 ± 0.8
CCOP(=O)(OCC)[C@@H]1C[C@@H](C(=O)Nc2cc3c4c(cccc4c2)C(=O)N(CCN2CCCC2)C3=O)ON1C (racemic) | viral plaque formation | plaque reduction | HEL | Davis |  | 20
Cc1cn([C@H]2C[C@H](N=[N+]=[N-])[C@@H](COC(=O)Cn3c(=O)ccn(CCCCCOc4ccc(Br)cc4)c3=O)O2)c(=O)[nH]c1=O | viral replication | plaque reduction | WS1 | AD169 | 5 days | 4.4 ± 2.1
Nc1nc(O)c2ncn(COC(CO)CO)c2n1 | cytopathic effect |  | HEL | AD-169 |  | 6.7 ± 2.9
Nc1nc2c(ncn2COC(CO)CO)c(=O)[nH]1 | viral plaque formation | plaque reduction | HEL | Davis |  | 7.9
NC1=NC(=O)N(CC(O)C(F)(F)F)CN1 (centres unmarked) | cytopathic effect |  | HEL | AD-169 |  | > 100
O=c1[nH]c(=O)c2ncn(CCOCP(=O)(O)O)c2[nH]1 | cytopathic effect |  | HEL | AD169 |  | 10.5 ± 3.9
O=C(O)Cn1c(=O)ccn(CCCCCCOc2ccc(Br)cc2)c1=O | viral replication | plaque reduction | WS1 | AD169 | 5 days | 78.1 ± 18.3
Nc1ccn(C[C@@H](CO)OCP(=O)(O)O)c(=O)n1 | cytopathic effect |  | HEL | AD169 |  | 0.86 ± 0.37
CC(C)OP(=O)(CO[C@H](CF)Cn1cnc(N)nc1=O)OC(C)C | cytopathic effect |  | HEL | AD-169 |  | 24.5 ± 13.6

A few entries again:
Compound | read-out | method | cell line | strain | time | EC50 [µM]
O=c1nc(NC2CC2)c2ncn(CCOCP(=O)(O)O)c2[nH]1 | cytopathic effect |  | HEL | AD169 |  | > 100
CC(C)OP(=O)(CO[C@H](CF)Cn1cnc(N)nc1=O)OC(C)C | cytopathic effect |  | HEL | AD-169 |  | 24.5 ± 13.6
CCCCCCCCCCCCCCCCOCCCOP(=O)(O)COCCn1cnc2c(=O)[nH]c(=O)[nH]c21 | cytopathic effect |  | HEL | AD169 |  | 0.2 ± 0.28
CCOC(=O)C(C)NP(=O)(COC(CF)CN1CN2C=C(c3ccccc3)NC2=NC1=O)NC(C)C(=O)OCC (centres unmarked) | cytopathic effect |  | HEL | AD-169 |  | > 100
